# Results pooled from the literature.
# Each line is one published result; not all experiments were run side by side. Several values in a cell are separate wells, animals, samples, runs or records.
SMILES,tested on,test,test system,setting,how to read,quantity,value
C[C@H]1O[C@@H](O[C@H]2CC[C@@]3(C)[C@@H](CC[C@]4(C)[C@@H]3C=C[C@]35OC[C@@]6(CCC(C)(C)C[C@H]63)[C@@H](O)C[C@]54C)[C@]2(C)CO)[C@H](O)[C@@H](O[C@@H]2O[C@H](CO)[C@@H](O)[C@H](O)[C@H]2O)[C@H]1O,,UHPLC-MS/MS,"mouse, plasma","oral, 50 mg/kg, 4 h, pooled samples",,plasma concentration,1 ng/mL and 1.09 ng/mL
CCOCc1nc(O)c(-c2nnc(Cc3ccc(Cl)cn3)o2)c(O)c1-c1c(OC)cccc1OC,,,"rat, anaesthetised, cannulated, plasma","intravenous infusion, 100 µg/kg/min, 20 min after infusion stop, washout",,plasma concentration,9660 nM
C[C@@H]1CCO[C@H]2Cn3cc(C(=O)NCc4ccc(F)cc4F)c(=O)c(O)c3C(=O)N12,,"population PK, post-hoc","children aged 0.25 to 5 years, 6 to <10 kg, plasma","oral, 15 mg dispersible tablet, 24 h, steady state, geometric mean",,plasma concentration,765 ng/mL
CCN1CCN(Cc2ccc(NC(=O)c3ccc(C)c(NC(=O)c4cncc(-c5cccs5)c4)c3)cc2C(F)(F)F)CC1,,LC-MS/MS,"C57BL/6 mouse, plasma","intraperitoneal, 15 mg/kg single dose, 8 h",,plasma concentration,26 ng/mL and 48 ng/mL and 60 ng/mL
COc1cccc(-c2n[nH]c(SCc3ccccn3)n2)c1OC,,,"Sprague-Dawley rats, both sexes","oral dietary, 100 mg/kg/day, day 90, 1 h",,plasma concentration,4540 ng/mL
Cc1c(C(=O)O)ccc2c3n(nc12)[C@@H]1[C@H](C3)N(CC2CC2)[C@@]2(C(=O)Nc3cc(Cl)ccc32)[C@H]1c1cccc(Cl)c1F,,,"female BALB/c nude mice, plasma","oral, 1 mg/kg twice daily, 7 h, SJSA-1 tumour-bearing",,plasma concentration,769 nM and 531 nM and 473 nM and 465 nM and 306 nM
Cn1cc([C@H]2C[C@H]3CSC(N)=N[C@@]3(c3ccc(F)cc3F)CO2)cn1,,,"male 129/SVE mouse, plasma","subcutaneous, 3 mg/kg, 6 h",,plasma concentration,11 nM
Cn1cc(-c2ccc(-c3cncc(Cl)c3N3CCC4(CCNC4=O)CC3)cc2)cn1,COLO 205,"microarray, measured: ATF-3",,"concentration not given, 4 h",relative to: untreated cells,fold change in expression,2.11
Cc1c(-c2ccc(N3CCc4cccc(C(=O)Nc5nc6ccccc6s5)c4C3)nc2C(=O)O)cnn1CC12CC3(C)CC(C)(C1)CC(OCCNCC[C@H](O)CO)(C3)C2,,,anaesthetized male beagle dog,"iv infusion, 0.01 mg/kg/min, 90 min",,plasma concentration,< 2 ng/mL

# Some of these lines once more:
SMILES,tested on,test,test system,setting,how to read,quantity,value
C[C@@H]1CCO[C@H]2Cn3cc(C(=O)NCc4ccc(F)cc4F)c(=O)c(O)c3C(=O)N12,,"population PK, post-hoc","children aged 0.25 to 5 years, 6 to <10 kg, plasma","oral, 15 mg dispersible tablet, 24 h, steady state, geometric mean",,plasma concentration,765 ng/mL
